{"data": "Published values gathered from unrelated publications", "note": "Each line is one published result; not all experiments were run side by side. Values joined by “and” are separate records of one study, mostly repeats; a detail may differ. ± gives the spread as reported."}
{"Structure (SMILES)": "CC(C)C[C@H](NC(=O)[C@@H](N)CO)C(=O)N[C@@H](Cc1c[nH]c2ccccc12)C(=O)N[C@@H](CCC(=O)O)C(=O)N[C@@H](CC(N)=O)C(=O)N[C@@H](Cc1ccccc1)C(=O)N[C@@H](CCCCN)C(=O)N[C@@H](CC(N)=O)C(=O)N[C@@H](C)C(=O)NCC(=O)N[C@@H](CCCCN)C(=O)N[C@@H](CCCCN)C(N)=O", "organism": "Gram-positive bacteria", "measurement": "geometric mean MIC", "result": "256 µM"}
{"Structure (SMILES)": "C[N+]1=C2C(c3ccc(Cl)cc3)=[N+]([O-])c3ccccc3N2CCC1", "organism": "Clostridioides difficile", "assay": "microbial growth", "measurement": "MIC90", "result": "32 µg/mL"}
{"Structure (SMILES)": "CC[C@H](C)CCCCC(=O)N[C@@H](CCN)C(=O)N[C@H](C(=O)N[C@@H](CCN)C(=O)N[C@H]1CCNC(=O)[C@H]([C@@H](C)O)NC(=O)[C@H](CCN)NC(=O)[C@H](CCN)NC(=O)[C@H](CC(C)C)NC(=O)[C@@H](CC(C)C)NC(=O)[C@H](CCN)NC1=O)[C@@H](C)O", "organism": "Escherichia coli", "assay": "daily serial passaging", "test system": "ATCC 8739", "setting": "highest sub-MIC, 38 days", "how to read": "reference: initial MIC", "measurement": "MIC fold change", "result": 1.47}
{"Structure (SMILES)": "O=C(O)C(Cl)Cl.OCCN(CCO)CCO", "organism": "Solanum nigrum", "assay": "herbicidal activity", "setting": "15 mg/mL, 21 days, post-emergence greenhouse", "measurement": "inhibition", "result": "-48%"}
{"Structure (SMILES)": "Cc1cc(C(=O)Nc2nc3cccc(C)c3n2[C@H]2CCCCN(C(=O)/C=C/CN(C)C)C2)ccn1", "organism": "Trypanosoma brucei", "test system": "2T1 CLK1 over-expression induced", "setting": "concentration not given", "measurement": "parasite density", "result": "680000 parasites/mL and 640000 parasites/mL and 610000 parasites/mL"}
{"Structure (SMILES)": "O=CCNCCOn1c(=O)n(OCCNCCO)c(=O)n(OCCNCCOn2c(=O)n(OCCNCCO)c(=O)n(OCCNCCO)c2=O)c1=O", "organism": "Proteus mirabilis", "assay": "broth microdilution", "measurement": "MLC", "result": "8 ± 2 µg/mL"}
{"Structure (SMILES)": "CC(C)C[C@H]1NC(=O)[C@H](CO)NC(=O)[C@@H](Cc2c(-c3ccc(-c4ccc5ccccc5c4)cc3)[nH]c3ccccc23)NC(=O)[C@@H](CO)NC(=O)[C@@H](C(C)C)NC(=O)[C@H](Cc2ccccc2)NC(=O)[C@@H](C(C)C)NC1=O", "organism": "Mycobacterium marinum", "measurement": "MIC90", "result": "39.2 µM"}
{"Structure (SMILES)": "CN(C)c1nc(NCc2cccc(-c3ccccc3)c2)c(/N=N/c2ccc(Cl)cc2)c(N(C)C)n1", "organism": "Ostrinia furnacalis", "assay": "leaf dipping", "setting": "500 mg/L, 96 h", "measurement": "mortality", "result": "96.7 ± 5.77%"}
{"Structure (SMILES)": "CCOC(=O)/C=C/[C@H](C[C@@H]1CCNC1=O)NC(=O)[C@@H](CC(=O)[C@@H](NC(=O)c1cc(C)on1)C(C)C)Cc1ccc(F)cc1", "organism": "Rhinovirus A", "assay": "viral replication, high-content imaging", "test system": "HeLa-CDHR3 C529Y, RV-A16", "setting": "3 dpi", "measurement": "IC50", "result": "4 nM"}
{"Structure (SMILES)": "CC(C)(C)OC(=O)N1CCN(S(=O)(=O)c2ccc(-c3ccc4ncnc(Nc5ccc(OCc6cccc(F)c6)c(Cl)c5)c4c3)cc2)CC1", "organism": "Trypanosoma cruzi", "assay": "intracellular amastigote growth", "test system": "NIH 3T3, Tulahuen, β-galactosidase-expressing", "setting": "10 µM, 96 h", "measurement": "inhibition", "result": "5%"}
{"Structure (SMILES)": "CC[C@H](C)[C@@H]1NC(=O)[C@H](CO)NC(=O)C(C)(CCCCN)NC(=O)[C@@H]2CSSC[C@@H](C(=O)N[C@@H](Cc3ccc(O)cc3)C(N)=O)NC(=O)[C@H](CCCCN)NC(=O)[C@@H]3CSSC[C@H](NC(=O)[C@H](CCCNC(=N)N)NC(=O)C(C)(CC(C)C)NC(=O)[C@H](CC(=O)O)NC(=O)[C@H](CC(=O)O)NC(=O)[C@H](CCC(=O)O)NC(=O)[C@H](CC(N)=O)NC(=O)[C@H](Cc4c[nH]c5ccccc45)NC(=O)C(C)(CC)NC(=O)CNC(=O)[C@H](CC(N)=O)NC(=O)[C@@H](NC(=O)CNC(=O)[C@H](Cc4ccccc4)NC(=O)CN)CSSC[C@H](NC(=O)[C@H](Cc4ccc(O)cc4)NC(=O)CNC(=O)CNC(=O)[C@H](CCCCN)NC(=O)[C@H](Cc4ccc(O)cc4)NC(=O)[C@H]4CCCN4C(=O)[C@@H]4CCCN4C1=O)C(=O)N[C@@H](C)C(=O)N[C@@H](CCCCN)C(=O)N1CCC[C@@H]1C(=O)NCC(=O)N[C@@H](Cc1ccccc1)C(=O)N[C@@H](C(C)C)C(=O)N3)C(=O)N[C@@H](Cc1c[nH]cn1)C(=O)NC(C)(C)C(=O)N[C@@H](Cc1c[nH]cn1)C(=O)N2 (stereo partly drawn)", "organism": "Streptococcus pneumoniae", "test system": "BS-444", "setting": "24 h, 37 °C, 99.9% killing", "measurement": "MBC", "result": "2 µM"}
{"Structure (SMILES)": "CCOC(=O)C1(CC#N)Oc2cc(F)ccc2N(CC#N)C1=O (stereo not drawn)", "organism": "Setaria viridis", "assay": "fresh weight, greenhouse postemergence", "setting": "postemergence, 150 g ai/ha, 21 days", "measurement": "inhibition", "result": "59.9 ± 1.44%"}
{"note": "Some of these lines once more:"}
{"Structure (SMILES)": "O=CCNCCOn1c(=O)n(OCCNCCO)c(=O)n(OCCNCCOn2c(=O)n(OCCNCCO)c(=O)n(OCCNCCO)c2=O)c1=O", "organism": "Proteus mirabilis", "assay": "broth microdilution", "measurement": "MLC", "result": "8 ± 2 µg/mL"}
